# Measurements pooled from the literature.
# Values joined by “and” are separate records of one study, mostly repeats; a detail may differ. ± marks the error that the study gave.
SMILES,assay,system,setting,scale,endpoint,value
CSCCC(C(=O)Nc1ccc2c(c1)OCCO2)N1Cc2ccccc2C1=O (stereo not drawn),PAMPA,artificial membrane,"10 µM, 4 h",,permeability coefficient,> 1 ×10⁻⁶ cm/s
Cc1noc(C)c1Cn1cc(N2C(=O)CN(Cc3cccc(OS(=O)(=O)O)c3)C2=O)cn1,,"Sprague-Dawley rat, male","oral, 100 mg/kg of parent drug, 0.25 h",,plasma concentration,3020 ng/mL
COc1cccc(OC)c1-c1cc(C(=O)NC2(C(=O)O)C3CC4CC(C3)CC2C4)nn1-c1ccc(C(=O)N(C)CCOCCN(C)C(=O)[C@H](CCCCNC(=O)[C@H](CC(C)C)NC(=O)C2OC2C(=O)O)NC(=O)CN2CCN(CC(=O)[O-])CCN(CC(=O)[O-])CCN(CC(=O)[O-])CC2)cc1C(C)C.[177Lu+3] (mixture of isomers),,"mouse, HT-29 xenograft","168 h post injection, biodistribution",baseline: tumour over bone uptake,tumour-to-bone ratio,4.05
COC(=O)[C@@]1(C)C=C(C(=O)Nc2cccc(C(=O)Nc3ccc(Nc4nccc(-c5cccnc5)n4)c(C)c3)c2)C(=O)CC1,,"Wistar rat male, blood plasma","1 µM, 2 h",,compound remaining,2.6% and 8.1%
CC(C)(O)Cn1nc(-c2ccccc2)c2c(Cl)c(-c3ccccc3)nnc21,,"mouse juvenile P20, plasma","intraperitoneal, 100 mg/kg",,AUC,19.8 µM·h
CCC1=[N+]2N=C(c3ccccc3)C(=O)O[B-]2(c2ccccc2)Oc2cc(N(CC)CC)ccc21 (stereo not drawn),,toluene,,,fluorescence quantum yield,0.72
COc1ccccc1NC(=O)OC1C(C)C(OC)C=COC2(C)Oc3c(C)c(O)c4c(c3C2=O)C2=NC3(CCN(CC(C)C)CC3)NC2=C(NC(=O)C(C)=CC=CC(C)C(O)C(C)C(O)C1C)C4=O (stereo not drawn),,"CD-1 mouse female, plasma","oral, 10 mg/kg",,fAUC/MIC ratio,0.84
CC(=O)Nc1ccc([C@H]2[C@@H](F)[C@@H](F)C[C@@H](F)[C@H]2F)cc1,liver microsome stability,mouse liver microsomes,1 µM,,hepatic clearance,77 mL/min/kg
CCCC[C@H](OC(C)=O)c1ccccc1C(=O)O,,"Sprague-Dawley rats, both sexes, whole blood","intravenous, 1.25 mg/kg single dose",,MRT(0-t),2.4 ± 1 h
CC(=O)N([O-])CCCCCNC(=O)CCC(=O)N([O-])CCCCCNC(=O)CCC(=O)N([O-])CCCCCN.[89Zr+4],radio-TLC,aqueous buffer,"3 d, pH 7.2, 37 °C, 89Zr-labelled complex, together with: FeCl3 100-fold excess",,intact complex,40.7 ± 3.1%
CC(C)(O)c1ncc([S@](N)(=O)=NC(=O)Nc2c3c(cc4c2CCC4)CCC3)s1,"measured: metabolism, nutrition disorders",healthy human,"oral, 100 mg, all formulations pooled",,subjects with TEAEs,17%
COc1cnc2cccc(N3CCc4c(cc(Cn5ccnc5)cc4-c4cn(C)nc4C(F)(F)F)C3=O)c2c1,,"CD-1 mouse, male, plasma","intraperitoneal, 100 mg/kg",,AUC extrapolated fraction,0.3%
O=C(Nc1cnccc1-c1ccc([18F])cc1)c1ccnc(NC(=O)C2CC2)c1,"ex vivo biodistribution, gamma counting","transgenic mouse, GSK-3β overexpressing, early stage, right kidney","intravenous, 120 min",,SUV,0.25
CCCC[C@H](NC(=O)CNC(=O)CNC(=O)[C@H](CCCCNC(=O)[C@H](CC(=O)O)NC(=O)C(C)c1ccc(CC(C)C)cc1)NC(=O)CN1CCN(CC(=O)O)CCN(CC(=O)O)CCN(CC(=O)O)CC1)C(=O)N[C@H]1CC(=O)NCCCC[C@@H](C(N)=O)NC(=O)[C@H](Cc2c[nH]c3ccccc23)NC(=O)[C@H](CCCNC(=N)N)NC(=O)[C@@H](Cc2ccccc2)NC(=O)[C@H](Cc2c[nH]cn2)NC1=O (stereo partly drawn) [lutetium-177 labelled],,"C57 mice, tumour","intravenous, 0.037 MBq, 24 h",baseline: liver,tumour-to-tissue ratio,6.84
O=C(Nc1cc(-c2ccnc3[nH]ccc23)c(Cl)cn1)[C@H]1CCC[C@@H](NC(=O)C(F)(F)F)C1,,mouse liver microsomes,,,hepatic clearance,66.4 mL/min/kg
C=CC(=O)Nc1cc(Nc2nccc(-c3cn(C)c4ccccc34)n2)c(OC)cc1N(C)CCNC,storage stability,human dried blood spot samples,"30 d, -80 °C, LLOQ level",baseline: nominal concentration,percentage recovery,13.3%
CN1CCC[C@]1(C)/C=C/S(=O)(=O)NC(=O)Nc1c2c(cc3c1CCC3)CCC2,"measured: Pyrexia, possibly related",human,"oral, 12.5 mg twice daily, 14 days, multiple ascending dose",,subjects with adverse event,0%
c1cc(C2CCCCC2)ccc1-c1cnc(N2CCOCC2)nc1,liver microsome stability,cynomolgus liver microsomes,1 µM,,hepatic clearance,32 mL/min/kg
COc1cccc(OC)c1-c1cc(C(=O)NC2(C(=O)O)C3CC4CC(C3)CC2C4)nn1-c1ccc(C(=O)N(C)CCCN(C)C(=O)[C@H](CCCCNC(=O)[C@H](CC(C)C)NC(=O)C2OC2C(=O)O)NC(=O)CN2CCN(CC(=O)[O-])CCN(CC(=O)[O-])CCN(CC(=O)[O-])CC2)cc1C(C)C.[177Lu+3] (mixture of isomers),,"mouse, HT-29 xenograft","168 h post injection, biodistribution",baseline: tumour over bone uptake,tumour-to-bone ratio,30
O=C(N1CCCCC1)C12CC(c3ccccc3)(C1)C2(Cl)Cl,metabolic stability,"human, liver microsomes","2 µM, 15 min, pH 7.4",,compound remaining,79%
Cc1cc(F)ccc1-c1cc(N2C[C@H]3COC(O)CN3C[C@H]2CO)ncc1N(C)C(=O)C(C)(C)c1cc(C(F)(F)F)cc(C(F)(F)F)c1 (stereo partly drawn),,pooled human liver microsomes,"pH 7.4, substrate depletion",,pathway contribution to clearance,100%
F[C@@H]1[C@H](c2ccc(-c3ccc(N4CCCC4)nc3)cc2)[C@H](F)[C@H](F)C[C@@H]1F,hepatocyte stability,cryopreserved mouse hepatocytes,1 µM,,hepatic clearance,21 mL/min/kg
CC(C(=O)O)n1nc(Cn2cc3cc(OCC[18F])c(Cl)cc3n2)c2ccccc2c1=O (racemic),,"rat, heart",30 min,,tracer uptake,0.25 %ID/g
F[C@@H]1[C@H](c2ccc(-c3cncnc3)cc2)[C@H](F)[C@H](F)C[C@@H]1F,liver microsome stability,human liver microsomes,"1 µM, without NADPH",,hepatic clearance,3.9 mL/min/kg
C=CC(=O)Nc1cc(Nc2nccc(-c3c[nH]c4ccccc34)n2)c(OC)cc1N(C)CCN(C)C,storage stability,human dried blood spot samples,"30 d, -80 °C, MQC level",baseline: nominal concentration,percentage recovery,49.9%
CNC(=O)c1ccc(C2CCCCC2)cc1,liver microsome stability,human liver microsomes,"1 µM, without NADPH",,hepatic clearance,5.2 mL/min/kg
COc1cc2c(cc1O)CCN1C[C@@H](CC(C)C)[C@H](O)C[C@H]21,measured: non-deuterated analyte,"healthy human male, plasma","oral, 25 mg, median, [14C]-tetrabenazine dosed",,Tlag,0.5 h
COc1cccc(OC)c1-c1cc(C(=O)NC2(C(=O)O)C3CC4CC(C3)CC2C4)nn1-c1ccc(C(=O)N(C)CCCN(C)CCCN(C)C(=O)[C@H](CCCCNC(=O)[C@H](CC(C)C)NC(=O)C2OC2C(=O)O)NC(=O)CN2CCN(CC(=O)[O-])CCN(CC(=O)[O-])CCN(CC(=O)[O-])CC2)cc1C(C)C.[177Lu+3] (mixture of isomers),,"mouse, HT-29 xenograft","4 h post injection, biodistribution",baseline: tumour over kidney uptake,tumour-to-kidney ratio,1.6
O=C(Nc1ccc([C@H]2[C@@H](F)[C@@H](F)C[C@@H](F)[C@H]2F)cc1)C1CC1,hepatocyte stability,cryopreserved human hepatocytes,1 µM,,hepatic clearance,12 mL/min/kg
CC(C)C[C@H](NC(=O)[C@H](CCCN)NC(=O)CNC(=O)[C@@H](NC(=O)[C@H](C)NC(=O)[C@@H]1CSCSC[C@H](NC(=O)CC[C@H](N)C(=O)O)C(=O)N[C@@H](CC(N)=O)C(=O)N[C@@H]([C@@H](C)O)C(=O)N[C@@H](C)C(=O)N[C@@H]([C@@H](C)O)C(=O)N1)[C@@H](C)O)C(=O)N[C@@H](C)C(=O)N[C@@H](CCC(=O)O)C(=O)N[C@@](C)(Cc1ccccc1)C(=O)N[C@@H](CC(C)C)C(=O)N[C@H](C(=O)N[C@@H](CCCNC(=N)N)C(=O)N[C@@H](CO)C(=O)N[C@@H](CO)C(=O)N[C@@H](CC(N)=O)C(=O)N(C)[C@@H](CC(N)=O)C(=O)N[C@@H](Cc1ccccc1)C(=O)NCC(=O)N1CCC[C@H]1C(=O)N[C@@H](CCCCNC(=O)CC[C@H](NC(=O)CC[C@H](NC(=O)CCCCCCCCCCCCCCCCCCC(=O)O)C(=O)O)C(=O)O)C(=O)N[C@@H](CC(C)C)C(=O)N1CCC[C@H]1C(=O)N1CCC[C@H]1C(=O)N[C@H](C(=O)N[C@@H](CCC(=O)O)C(=O)N[C@H](C(=O)NCC(=O)N[C@@H](CO)C(=O)N[C@@H](CC(N)=O)C(=O)N[C@H](C(=O)N[C@@H](Cc1ccc(O)cc1)C(N)=O)[C@@H](C)O)C(C)C)[C@@H](C)O)C(C)C,,"human, plasma","subcutaneous, 4 mg, single dose, healthy volunteers",,half-life,366 h
CCCCCCCC(=O)[O][Pt]([Cl])([Cl])[O]C(=O)CCCCCCC.N.N,"ICP-MS, measured: platinum","nude mice, blood","intravenous, equimolar single dose",,CL2,0.000156 mg/(ng/mL)/h
O=C(Nc1ccc(C2CCCCC2)cc1)C1CC1,liver microsome stability,rat liver microsomes,1 µM,,hepatic clearance,52 mL/min/kg
Cc1cc(-c2ccc(C(=O)[C@@H]3CCCC[C@H]3C(=O)Nc3cnn4c3C(=O)NCC4)cc2)[nH]n1,,"human, urine","oral, 200 mg, 0-6 h",baseline: dose,radioactivity recovery per interval,1.77% and 2.75% and 1.75% and 2.03% and 1.3% and 2.88%
COc1ccc2c(c1)CN(C(=O)CCN1CCC(Cc3ccccc3)CC1)CC[S+]2[O-] (stereo not drawn),,dog plasma,750 ng/mL,,fu,0.33
CCn1nc(Cl)c2c1-c1cnc(N)c(c1)O[C@H](C)c1cc(F)ccc1-c1nn(C)cc1C2,,"Balb/c nude mouse, female, plasma","0.5 mg/kg twice daily for 5 days, 1 h",,free plasma concentration,6.24 nM
C/C(N)=N/C(=N\S(=O)(=O)c1ccc(C(F)(F)F)cc1)N1C[C@H](c2ccccc2)C(c2ccc(Cl)cc2)=N1,,minipig liver cytosol,,,t1/2,0.753 h
C=C(NC(=O)c1csc(-c2nc3c(cc2O)-c2nc(cs2)C(=O)NC(C(C)O)C(=O)NC(=C(C)OC)c2nc(cs2)C(=O)NC2c4nc(cs4)C(=O)NC(COC(=O)c4c5c6c(cccc6n4O)COC(=O)C(OC4CC(C)(O)C(N(C)C)C(C)O4)C2OC5)c2nc-3cs2)n1)C(N)=O (stereo not drawn),,"cynomolgus monkey, both sexes, plasma","intravenous infusion, 3 mg/kg multiple doses, day 7",,Cmax,19100 ng/mL
[123I]c1ccc2nc(-c3ccc(-n4ccnn4)nc3)cn2c1,,"male Wistar rat, pancreas","intravenous, 4 MBq, 30 min",,tracer uptake,0.276 %ID/g
CCC1=[N+]2N=C(/C=C/C=C/c3ccccc3)C(=O)O[B-]2(c2ccccc2)Oc2cc(N(CC)CC)ccc21 (stereo not drawn),,toluene,,,fluorescence emission maximum,548 nm
COc1cccc(OC)c1-c1cc(C(=O)NC2(C(=O)O)C3CC4CC(C3)CC2C4)nn1-c1ccc(C(=O)N(C)CCOCCOCCN(C)C(=O)[C@H](CCCCNC(=O)[C@H](CC(C)C)NC(=O)C2OC2C(=O)O)NC(=O)CN2CCN(CC(=O)[O-])CCN(CC(=O)[O-])CCN(CC(=O)[O-])CC2)cc1C(C)C.[177Lu+3] (mixture of isomers),,"mouse, HT-29 xenograft","72 h post injection, biodistribution",baseline: tumour over kidney uptake,tumour-to-kidney ratio,0.37
Cc1nc(N)nc2c1C(=O)N[C@@H](c1ccc(F)cc1-c1cccc(O[11CH3])n1)C2,ex vivo biodistribution,"healthy mice, stomach","60 min post-injection, baseline, vehicle pre-treatment",,tracer uptake,1.5 ± 0.2 %ID
COc1cccc(OC)c1-c1cc(C(=O)NC2(C(=O)O)C3CC4CC(C3)CC2C4)nn1-c1ccc(C(=O)NCCNC(=O)[C@H](CCCCNC(=O)[C@H](CC(C)C)NC(=O)C2OC2C(=O)O)NC(=O)CN2CCN(CC(=O)[O-])CCN(CC(=O)[O-])CCN(CC(=O)[O-])CC2)cc1C(C)C.[177Lu+3] (mixture of isomers),,"mouse HT-29 xenograft, small intestine","72 h post injection, biodistribution",,tissue uptake,0.21 %ID/g
O=C(NS(=O)(=O)c1cccs1)c1cc2ccccc2n1Cc1ccc(Br)c2ccccc12,,"KM mouse, chronic hyperuricaemia model","dose not given, day 14",,body weight,34.5 g and 31.1 g and 33.6 g and 36.1 g and 31 g
C=C1C[C@]2(C(=O)OC)C=C(C(=O)Nc3cccc(C(=O)Nc4ccc(Nc5nccc(-c6cccnc6)n5)c(C)c4)c3)C(=O)[C@H]1C2,,"Wistar rat, male, plasma","10 µM, 20 min",,compound remaining,1.71%
OC1(C(F)(F)F)CCN(c2nc(Nc3ccnc(C(F)(F)F)c3)nc(-c3cccc(C(F)(F)F)n3)n2)C1 (stereo not drawn),,"monkey, both sexes, plasma","oral, 1 mg/kg, day 1",,Cmax,155 ± 41.3 ng/mL
O=C(Nc1cnccc1-c1ccc([18F])nc1)c1ccnc(NC(=O)C2CC2)c1,,"FVB/NJ mouse, both sexes, brain","intravenous, 4 min post-injection, together with: P-gp inhibitor tariquidar 15 mg/kg iv",,SUV,0.25 ± 0.12
O=C(NCCOc1ccc(F)cc1)c1ccc(C2CCCCC2)cc1,liver microsome stability,rat liver microsomes,1 µM,,hepatic clearance,52 mL/min/kg
O=C(CN1CN(c2cccc(F)c2)C2(CCN(C(=O)c3cnc4[nH]ncc4c3)CC2)C1=O)NCC(F)(F)F,,human liver microsomes,,,CLint,32 µL/min/mg protein
